# Assay results collected from several papers.
# Lines come from different studies, so protocols differ.
SMILES,test,system,conditions,scale,quantity,value
NC(=O)c1cccc(-c2cc(OC(=O)NC3CCCCC3)ccc2O)c1,,mouse,10 mg/kg,,oral bioavailability,5.3%
Cc1ccc(F)c2cc(C(=O)N[C@@H]3CCC[C@H](N4CC[C@H](N(C)S(C)(=O)=O)C4)C3)[nH]c12,,CD1 mouse,"oral, 30 mg/kg",,oral bioavailability,28.4%
C[C@]12CC[C@H](O)CC1=CC[C@@H]1[C@@H]2CC[C@]2(C)C(n3cnc4ccccc43)=CC[C@@H]12.Cl,,"CD-1 mouse male, plasma",oral,,oral half-life,3.9 h
COc1ccnc(C(=O)N[C@H]2COC(=O)[C@H](Cc3ccccc3)[C@@H](OC(=O)C(C)C)[C@H](C)OC2=O)c1OCOC(=O)C(C)C,"refers to: urine, rinse and air","mouse, female",oral,,oral absorption,25%
C[C@H]1COCCN1c1nc(NCc2cccnc2C(F)(F)F)c2cccnc2n1,,BALB/c SCID mouse,"oral, 90 mg/kg",,oral bioavailability,91%
O=c1c2cc(Cl)c(CO)cc2[nH]c(=S)n1Cc1cncnc1,,mouse,"oral, 3.98 mg/kg",,oral bioavailability,26.2%
Cc1ccccc1C(=O)NN=Cc1ccc(O)c(Br)c1,,"normal C3H/HeN mouse, plasma","intraperitoneal, 0.8 mg/kg",reference: intravenous 1.6 mg/kg,oral bioavailability F,92.2%
CC(c1cncnc1)n1c(=S)[nH]c2ccc(Cl)cc2c1=O (stereo not drawn),,"mouse, plasma","oral, 50 mg/kg",,oral bioavailability,135%
Nc1nc(N)c(OCCCOc2ccccc2CCC(=O)O)c(C2CCCCC2)n1,,"BALB/c mouse, female","oral, 3 mg/kg",reference: intravenous 1 mg/kg,oral bioavailability,~40%
